Measured values from different studies.
Numbered parts are unrelated; each lists some results of a single study.

Block 1 — technique: protein binding microarray; form: double-stranded DNA, one strand shown; medium: in vitro; concentration: not given; reference: not given; direction: higher = stronger binding; quantity: E-score
Target: Histone acetyltransferase KAT6A, both winged helices, GST fusion (KAT6A, Homo sapiens, UniProt Q92794, residues 1-181)
Notes: 8-mer, flanks averaged, mean of 2 arrays, mostly near background
Construct (chain): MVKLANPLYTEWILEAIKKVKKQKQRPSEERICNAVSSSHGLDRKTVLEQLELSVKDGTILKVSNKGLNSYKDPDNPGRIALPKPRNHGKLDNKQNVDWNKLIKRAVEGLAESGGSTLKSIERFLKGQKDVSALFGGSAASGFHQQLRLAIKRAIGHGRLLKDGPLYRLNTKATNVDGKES
CTCCTAAG: -0.153
AAGGCACC: -0.0128
CGATCCCG: 0.203

Block 2 — technique: aptamer microarray, sandwich; form: DNA with 2'F-ANA; medium: in vitro; concentration: 200 nM; together with: Cy3 exosite-II aptamer, 400 nM; direction: higher = stronger binding; quantity: mean fluorescence intensity
Target: Prothrombin, mature alpha-thrombin (F2, Homo sapiens, UniProt P00734)
Notes: whole 15-mer aptamer, many near background
GGTTGGTGTGGTTGG (2'F-ANA at 2 6 9 10 12 13 14 15): 86.5 a.u.
GGTTGGTGTGGTTGG (2'F-ANA at 2 9 10 12 15): 177 a.u.
GGTTGGTGTGGTTGG (2'F-ANA at 1 2 3 4 5 8 9 10 13 14 15): 69.2 a.u.
GGTTGGTGTGGTTGG (2'F-ANA at 10 13 15): 168 a.u.

Block 3 — technique: RNA Bind-n-Seq; form: RNA; medium: in vitro; concentration: 365 nM; reference: no-protein control; direction: higher = stronger binding; quantity: RBNS enrichment (R)
Target: RNA binding protein fox-1 homolog 2, RRM domain, GST-SBP tag (RBFOX2, Homo sapiens, UniProt O43251-10, residues 100-194)
Notes: natural RNA segment, single round, ends assumed
Construct (chain): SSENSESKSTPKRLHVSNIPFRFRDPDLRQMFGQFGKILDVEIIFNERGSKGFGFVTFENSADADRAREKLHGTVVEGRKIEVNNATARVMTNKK
GGGAGUUCUACAGUCCGACGAUCUCAAGGUUGAAUUAAAAUGCCUGUGAACUGCAAACUUGCUUAUGAUUGACUUGGUGCAAUAAAGUUCCUUUCUAACCAUUUCUGGUUUAGAAAACAUUCAGCCAUCCUAGUGGAAUUCUCGGGUGCCAA: 5.06
GGGAGUUCUACAGUCCGACGAUCCAUGGCUGAAGCUGGAUGAGAUGUCCAGGAGUGCUCAUACAGCGACUGACGUAAGGACCCCCGACCGACCUCAUCUUGUUAAGUUAACGGAGACCCUUCUUGUUGAAGGGUGGAAUUCUCGGGUGCCAA: 0.371
GGGAGUUCUACAGUCCGACGAUCCUUAGAGGUCUGGGGCUGGAAGUCCAGACGGCGCAGGAGCAGUGUUGGGAAGGCUUUGCGUCCUGCCUGCAGACUUGCUAGAGCUGUGGUGAUUAACCCUGGCUGUUGAAUGGAAUUCUCGGGUGCCAA: 0.287
GGGAGUUCUACAGUCCGACGAUCCUUUGGUUGUAUGAUUUUCUUCUUUUUUAAGAACCCCUGGAAGCAGCGCCUCCUUCAGGGUUGGCUGGGAGCUCGGCCCAUCCACCUCUUGGGGUACCUGCCUCUCUCUCUGGAAUUCUCGGGUGCCAA: 0.297

Mixed results
PhoQ, residues 284 288 289 292 302 303 SMMNNA
fold induction (PhoP, residues 12 14 15 18 19 NNFVT (Escherichia coli, UniProt P23836); Sort-seq, measured: YFP reporter; E. coli; PhoQ-PhoP variant library, together with: 10 µM Mg2+; reference: high Mg2+ state, higher = stronger signaling): 5.19

For quick reference, copied from above (block 3):
GGGAGUUCUACAGUCCGACGAUCCAUGGCUGAAGCUGGAUGAGAUGUCCAGGAGUGCUCAUACAGCGACUGACGUAAGGACCCCCGACCGACCUCAUCUUGUUAAGUUAACGGAGACCCUUCUUGUUGAAGGGUGGAAUUCUCGGGUGCCAA: 0.371
